Assay results from different studies.
± gives the spread as reported.

| Compound | tested on | assay | system | conditions | scale | endpoint | value |
| --- | --- | --- | --- | --- | --- | --- | --- |
| C[C@@H]1CCO[C@H]2Cn3cc(C(=O)NCc4ccc(F)cc4F)c(=O)c(O)c3C(=O)N12 | hCMEC/D3 | – | – | 10 µM, 1 h, 37 °C | – | intracellular accumulation | 250 ± 45.5 pmol/mg protein |
| CSCC[C@@H]1NC(=O)[C@H](CC(=O)O)NC(=O)CNC(=O)[C@H](CCCNC(=N)N)NC(=O)[C@H](C)NC(=O)[C@H](CCC(=O)O)NC(=O)[C@H](CCCNC(=N)N)NC(=O)[C@@H]2CSSC[C@@H]3NC(=O)[C@H](CO)NC(=O)[C@H]([C@@H](C)O)NC(=O)[C@@H]4CCCN4C(=O)[C@H](C)NC(=O)[C@H](Cc4c[nH]c5ccccc45)NC(=O)[C@H](CC(=O)O)NC(=O)CNC(=O)[C@H](CCCNC(=N)N)NC(=O)CNC(=O)[C@H](CCC(N)=O)NC(=O)[C@@H]4CCCN4C(=O)[C@@H](NC(=O)CNC(=O)C(C)F)CSSC[C@H](NC(=O)CNC(=O)[C@H](C)NC(=O)[C@H](CC(C)C)NC(=O)[C@H](CSSC[C@@H](C(=O)NCC(N)=O)NC(=O)[C@H]([C@@H](C)O)NC(=O)[C@H](CCCNC(=N)N)NC(=O)[C@@H]4CCCN4C1=O)NC(=O)[C@H](CC(=O)O)NC(=O)[C@H](CO)NC(=O)[C@H](CC(=O)O)NC(=O)[C@H](CCC(N)=O)NC(=O)[C@H](CO)NC3=O)C(=O)N[C@@H](C(C)C)C(=O)N2 (some centres unmarked) [fluorine-18 labelled] | – | – | nude mice U-87 MG xenograft, bone | intravenous, 1 h | – | tissue uptake | 0.48 ± 0.21 %ID/g |
| [123I]c1cncc(OC[C@@H]2CCN2)c1 | – | SPECT | human, fusiform gyrus | intravenous bolus, 2.1 mCi | baseline: tissue over plasma | tissue/plasma ratio | 11.2 |
| COc1ccc2c(c1)[C@]13CCCC[C@@H]1[C@H](C2)N(C)CC3 | – | – | Wistar rat, both sexes, plasma | oral, 5 mg/kg, 2 h after pretreatment, with: single TCE 400 mg/kg | – | Cmax | 76.7 ± 9.95 ng/mL |
| C[C@H]1CNCCc2ccc(Cl)cc21 | – | – | male Sprague-Dawley rat, plasma | subcutaneous, 3 mg/kg, single dose | – | CL/F | 253 mL/min/kg |
| CN1CC[C@]23c4c5ccc(O)c4O[C@H]2[C@@H](O[C@@H]2O[C@H](C(=O)O)[C@@H](O)[C@H](O)[C@H]2O)C=C[C@H]3[C@H]1C5 | MDCK II | – | – | 1.0 µg/mL, 100 min, Hanks buffer | – | Papp | 2.99 ± 0.34 ×10⁻⁶ cm/s |
| Cc1ncc2n1-c1ccc(Cl)cc1C(c1ccccc1F)=NC2 | – | – | human CYP3A5*1/*1, serum | geometric mean, with: ketoconazole 200 mg | – | terminal half-life | 340 min |
| CN[C@@](C)(C[18F])C(=O)O | MDA-MB-468 tumour model | – | host not given, blood | 1 h, tumour-bearing | – | tracer uptake | 1 %ID/g |

For quick reference, copied from above:
| Compound | tested on | assay | system | conditions | scale | endpoint | value |
| --- | --- | --- | --- | --- | --- | --- | --- |
| C[C@H]1CNCCc2ccc(Cl)cc21 | – | – | male Sprague-Dawley rat, plasma | subcutaneous, 3 mg/kg, single dose | – | CL/F | 253 mL/min/kg |
